Published values gathered from unrelated publications.
Numbered parts are unrelated; each lists some results of a single study. Substitutions count along the parent as printed.

Study 1 — method: RNA Bind-n-Seq; molecule type: RNA; matrix: in vitro; tested at: not given; setting: RNA with constant flanks, ends assumed; reference: input RNA pool; reading: higher = stronger binding
Target: RING finger protein unkempt homolog, zinc fingers 1-6, GST-SBP tag (UNK, Homo sapiens, UniProt Q9C0B0, residues 30-357)
Shared flanks, not repeated: GGGAGUUCUACAGUCCGACGAUC … CAACAGAGGAUUGAGCAUCA
Target sequence (chain): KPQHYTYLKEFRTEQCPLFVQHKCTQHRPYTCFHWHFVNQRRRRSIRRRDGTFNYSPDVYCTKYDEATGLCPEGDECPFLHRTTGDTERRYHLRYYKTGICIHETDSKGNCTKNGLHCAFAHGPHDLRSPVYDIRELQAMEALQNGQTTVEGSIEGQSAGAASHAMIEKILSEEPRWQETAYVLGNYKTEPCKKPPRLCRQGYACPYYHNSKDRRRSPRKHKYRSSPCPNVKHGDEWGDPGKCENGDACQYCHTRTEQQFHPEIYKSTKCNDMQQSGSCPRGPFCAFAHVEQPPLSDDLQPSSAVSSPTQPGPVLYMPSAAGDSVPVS
Sequence | bound/input enrichment [ratio]
AUUGCAGCUAAAUACCAGUUGGAUCCUACUGCUUCUAUCUCUGCAAAGGUCAACAACUCCCGUUUAAUUGGAGUGGGCUAUACUCAGACUCUGAGGCCUGGUGUGAAGCUUACACUGUCU | 0.072
UCAUUGUCUUUUUUUUCCUCUUUUCUCUGUAAUUUGUUACUAAACAAAUUCCAGAAUUUGUUCCGCCGCUGAGUGUUCCUGAGUUGCCUAGUAGCAAUAAAACAAGUGAAUAGGAAAAUA | 0.574
GCUGAAUUUGCUGAGUUAAAGACACAGAUAGAGAGACUGAGACUAGAUUACCAGCACGAAACCGAAAGUUUACAGAGUAAACAGGACUCUGAGCGGUCUGCUCAUGCUAAAGAGAUGGAG | 0.449
UUUGCAGUUUAUGAUGGUCAUGCUGGAUCCCGAGUGGCAAAUUACUGCUCAACACAUUUAUCCGAACACAUCACUACUAACGAAGACUUUAGGGCAGCUGGAAAAUCAGGAUCUGCUCUU | 0.247
CCACCUCUAGCUUUCUUCCUACCCCAUUCCCGGCUUCCCUCCUCCUCCCCUGCAGCCUGGUCCGGUGGAUACCUGCCCUGACAUGUGAGGCAAGCUAAGGCCUGGAGGGUCAGAUGGGAG | 0.239
CCCAACAACACAGUAGUUGGGUCAUCAUAUGUACUUUUUGUCUUAUCAAUUUUCUUUACAACCGCCGGACUUCUAUUUGCUGGCAAAGUUUGUUUACCAGGCUGAUGAAUGUCUAAAUUG | 0.205
ACAAUGAAACUAGUCUGGAAAAAAAAACUUGCUUUUUGUUGUAGUUACCACUUAACCCUGCCGUUUAACAAGGAAUGUCUGUGCCAAUAAACCAAUUCUCCCUCUGCUUGACAUUGGCAG | 0.684
GUGACUCUUGUAUGUAAUCCUGUGGCUUAACUACUUCUCCCUCCUUGUCCAGCACUUUUCCCGCUCUCCCGUUCCCCAUCUCCAUUGCUCUGUACUCUUUUCUUUUUUCUUGUGCUGAGA | 0.562
GGCAUGUUGGAUAUGUGCGGCUUUGAUACUGGAGCUCUGGAUGUAAUUCGAAAUUUCACAUCCGAUAUGAUUUAACCAUAAGCAGCAGCACGAUCCAGAGAUCCAUUGCCAUCAGUGAUC | 0.18
GAUGAACUUCAUGAUCAUGGAGUUUCAAGCCUGAGUGUGAAGAUUAGAGUAAUGCCUUCCCGCUUUUUCCUGCUGUUGCGGUUUUUCUUGAGAAUUGAUGGGGUGCUUAUCAGAAUGAAU | 0.698
GAGCAUAGCAAGACUCCUGAGGAGAGGAACCUCACUUCCAGCCCGGCAAUGAAUGGGGACCCCGCUAAACUGGCUUGCUCUGAAGCACCUACCGACGUUUCCAAGACCUGGGUCACCUCA | 0.118

Study 2 — target: CCNB3, cyclin fold, Cln2 fusion (human); method: yeast growth competition, sequencing; matrix: yeast; setting: weak parent motif; reference: not given; reading: higher = stronger binding
Starting sequence: CDC6 docking peptide (human); TLKGRRLVFDNQL
Substitution | normalised enrichment score
N11K | 0.0995
R5D | 0.011
G4R | 0.424
L7R | 0.19
R6E | -0.191
G4P | 1.41
R5V | 0.292
D10W | 0.0635
L2F | 0.167
F9D | 0.246
V8L | 0.638
V8F | 0.355
R6Q | 0.057
G4H | 0.344
R6A | 0.00908
V8Y | 0.255
L13C | 0.543
L2Q | -0.26
R5Q | -0.373
Q12C | 0.126
R6V | 0.952
L13E | 0.331
Q12V | 0.319
N11Y | 0.606
F9I | 0.312

Study 3 — method: RNA Bind-n-Seq; molecule type: RNA; matrix: in vitro; tested at: 365 nM; reference: no-protein control; reading: higher = stronger binding
Target: RNA binding protein fox-1 homolog 2, RRM domain, GST-SBP tag (RBFOX2, Homo sapiens, UniProt O43251-10, residues 100-194)
Setting: natural RNA segment, single round, ends assumed
Shared flanks, not repeated: GGGAGUUCUACAGUCCGACGAUC … UGGAAUUCUCGGGUGCCAA
Target sequence (chain): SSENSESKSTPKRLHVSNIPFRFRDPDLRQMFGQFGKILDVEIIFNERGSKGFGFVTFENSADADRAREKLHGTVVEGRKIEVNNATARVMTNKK
Sequence | RBNS enrichment (R)
GGGACAAAACUGAGCAGCAGAAUUCGUAUAGACAUUUACGUUUAAAUUCUAAAAGCCCAAUUGAGAUGUUCAGGGAGGGUUUGUUUUGCCCUUUGGCCUCAUGAAUGGGU | 0.535
AAAAAUCUAUAGCCAGGAGUUUUAUAAACUCACCUGGCACCUACUGAGCUAAAAUAUGCAAAAUCUGAACUAAAAUAUGCAAAAUCACUUUAAUAUAAUUUGACAUUUGA | 0.62
UGAAGGUGGGAUAAGGCUCCUCUGUUAGUGCUGGAAGCUCCUGUAAUUGCCGCAUGGAUCCCACUGUGCCCUCUUGUUCUGUGCAAGUCUGUCCUGUCUGGGCACUAACC | 3.06
GAUGCCAAGACCUUAGCCCCAAGGGGAGAUUUCCAAACUCUUAAAAAUGAAGGCUCCCAUGAGUCUUCACUAGAAAGAUGUGGUCCCCAUCCCCACCCUGACUGAGACCU | 0.296
GGAGCUAGAACCAGGGAGGUCCUGAGUGAGGAAGGCAUGACCUCUGGGCUCUCUAGGUGGCCCUGGUCUUGCCCCAUCCAUCCCACCUGCCACUACCUUGGGUGUCCUUA | 0.286
CUUGUCCCUUAAUUAUUCACCAGACCCAGAAGUUGUACGCAUUUAAUGCUGUUUGUAACCAUGCAUCUGUUUUCAUUCUUUGCUGUACCUUUUGCUGCCCAUCCUGUUAC | 0.867
AAAAUUCAAACUGCCUAUAUUGAUAAAACCAUACAGUGAGCCAGCCUUGCAGUAGGCAGUAGACUAUAAGCAGAAGCACAUAUGAACUGGACCUGCACCAAAGCUGGCAC | 0.351
UAGAACCGCAAUGCAGGCUUGGGGAAUUGGCUCAGUCAGAGAAGGCCUUGCUUUGCAAGGAUGGUAAAGAGAAAGCAGACCAGCCAGAUGCAGUCAGUGGUGUAUGCUUG | 1.7
AAGGUUAAGGUCGUGGCAGCAGAUGCCUAGCUUCUUAUUUAAAAAGUUGAGUGCACCCAGCCAUUUUCUGUUUUAAAGAUAGGUUAAUAUAGCCAAGAGGGUCAUACAGC | 0.375
UCAUUACCCAUUAAUUAUGGCCAACUGUAAGGAGAUAGUCCUGUUACUAUUCUUAAAUGAAGUCCUCCCCAAACGUGAAUGGAAGCAGAGUUCUUUGCCAGGCUGCCUGC | 0.617
CAUUUACCCAGUGGACAUGAGCGCUGCUGAAUUUCAUAUAAGGGUCUUCACAGAAAAUACAUGUUCCUUCCCCGUGGUUCCUGUACUCAUUUUAACGUGUUGUUUAUUCU | 0.44
UGUAACUUAAUACCAGUAGUCAACCACUGGAUCUCAGUUUUCAUCAAGUAUUUUAAAUAAAUAAUCUUAAAUUUUAAAAUACGUACUGCAGAGUAUGCCAGUAUCUUAUU | 0.508

Study 4 — method: RNA Bind-n-Seq; molecule type: RNA; matrix: in vitro; tested at: 200 nM; setting: whole 134-nt RNA, ends assumed; added: 150 mM LiCl; reference: input library; reading: higher = stronger binding; all molecules: 7-deaza-guanosine replaces G
Target: Fragile X messenger ribonucleoprotein 1, C-terminal low-complexity region (Fmr1, Mus musculus, UniProt P35922)
Shared flanks, not repeated: GGGAGUUCUACAGUCCGACGAUC … UGGAAUUCUCGGGUGUCAAGG
Sequence | log2 enrichment
AAGUCCUGUGCUACACAUCGUAUGUACCGAAUCGGAAAAAAAGGUUUUUUUGGUGGAAAGUAUUAUGUUACGCCGUUCGGAUCUGCACUU | -3.13
CCUGUGCUACACAUCGUAUGUACCGAAUCGGGUUUUUUUGGUUUUUUUGGGUUUUUUUGGAAAGUAUUAUGUUACGCCGUUCGGAUCUGC | 0.0152
UAACUUUAGAGGAGGAUUUGAUGGAUAUGGCAGUGGACGUGGAUUUGGGGAUGGCUAUAAUGGGUAUGGAGGAGGACCUGGAGGUGGCAA | 0.658
GCAGGAAGUAAAAACAAAUGGAAAUGCUUCGGAUAGUGGCAGGGGUGGGGGUUGCUUAGGAAAGGGUGGGAUGGGAGUGGGUAAAGAGUU | 1.16
ACCAUGCAGGUGGGCAUCUUUGGGAAGUGGGGCAAGGGGGGGAUAGGGAGGGGGGUAACACUUUGGGAACAGGUGGUCCCAGGUCGUGUC | 1.39
UGGCCCUGGUGGCAUGCGGGGAGGAAGAGGUGGCCUCAAGGAUCGUGGUGGUCCCGGUGGAAUGUUCAGAGGUGGCCGUGGUGGAGACAG | -0.247
UGGCCCUGGUGGCAUGCGGGGGGGAAGAGGUGGCCUCAUGGAUCGUGGUGGUCCCGGUGGAAUGUUCAGAGGUGGCCGUGGUGGAGACAG | 0.553
UGGGAGGUGGAUUUUGUUUAUUUUUUUAGCUCAUUUCCAGGGGUGGGAAUUUUUUUUUAAAAUGUGUCAUGAAUAAAGUUGUUUUUGAAA | -0.164
CACAGACAACACGCACCCACACAGACACAGAGGGAAGGGGUUGGGAUGGGGACAGGGUGCACAGCAGGCCGGGGUAGGACCCCAGCCCCU | -0.136
CCUGUGCUACACAUCGUAUGUACCGAAUCGGGGAAAAAAAGGGGUUUUUGGGGUUUGGGGAAAGUAUUAUGUUACGCCGUUCGGAUCUGC | -1.88
GUCCUGUGCUACACAUCGUAUGUACCGAAUCGGGAAAAAAAGGGUUUGGGUUUUUGGGAAAGUAUUAUGUUACGCCGUUCGGAUCUGCAC | -1.98

For quick reference, copied from above (study 2):
Substitution | normalised enrichment score
R5D | 0.011
G4R | 0.424
L7R | 0.19
R6E | -0.191
G4P | 1.41
